Published values of several laboratories.
Each line is one published result; not all experiments were run side by side. ± marks the error that the study gave. Ends that are not written are not given here. * marks the point of attachment.

For `CC(=O)c1sc(NN=C2c3ccccc3-c3nc4cc(F)ccc4nc32)nc1C`, the blood glucose was 238 ± 4.8 mg/dL (mice with STZ-induced diabetes; oral, 25 mg/kg, 144 h, day 6).
The inhibition of `Cc1noc(NS(=O)(=O)c2ccc(N=NN(C)O)cc2)c1C` is reported as 77.4% (paw oedema; rat, carrageenan oedema; oral, 100 mg/kg, 4 h after carrageenan; baseline: vehicle).
`CCCCc1ncc(CO)n1Cc1ccc(-c2ccccc2-c2nn[nH]n2)cc1`: “body weight change” -2.02 ± 4.34% (mouse DSS colitis; transanal, 100 mg/kg/day, day 1; baseline: baseline).
`Cc1c(C)c2c(c(C)c1OCc1ccccc1)CCC(C)(C(=O)NN=C1C(=O)N(C)c3ccccc31)O2` (stereo not drawn) — result for “minimal effective dose”: 100 mg/kg (seizure protection; male CF-1 mice; intraperitoneal, 4 h, with: maximal electroshock).
The blood glucose of `O=C1CSC(N=C2c3ccccc3-c3nc4cc(F)ccc4nc32)=N1` is reported as 187 ± 3.4 mg/dL (mice with STZ-induced diabetes; oral, 25 mg/kg, 288 h, day 12).
`AGEDPHGYALPGQAA` — result for “inhibition of RANTES release”: 0% (ELISA or Luminex; peptide, mouse peritoneal macrophages, C57BL/6 mouse; optimal dose within 0.1 pM to 100 nM, 1 h pretreatment, 15 h stimulation, with: LPS 100 ng/mL + IFN-γ 20 ng/mL; baseline: LPS/IFN-γ stimulated control).
For `Cc1c(C)c2c(c(C)c1OCc1ccccc1)CCC(C)(C(=O)NN=C1C(=O)N(C)c3ccc(Cl)cc31)O2` (stereo not drawn), “minimal effective dose” read 100 mg/kg (seizure protection; male CF-1 mice; intraperitoneal, 0.5 h, with: maximal electroshock).
The blood glucose of `CCOC(=O)c1sc(N=C2c3ccccc3-c3nc4cc(F)ccc4nc32)nc1C` is reported as 220 ± 13.9 mg/dL (mice with STZ-induced diabetes; oral, 25 mg/kg, 216 h, day 9).
With `COc1ccc2c(c1)c(CC(=O)O)c(C)n2C(=O)c1ccc(Cl)cc1` the cytokine level was 119 ± 60 pg/mL (multiplex bead immunoassay, item: IL-9; CD-1 mice, serum; ip, 20 mg/kg, three-injection regimen, with: LPS 3 mg/kg).
`CCOC(=O)c1sc(NN=C2c3ccccc3-c3nc4cc(F)ccc4nc32)nc1C` gave a blood glucose of 301 ± 34.7 mg/dL (mice with STZ-induced diabetes; oral, 25 mg/kg, 144 h, day 6).
`COCCc1ccc(OCC(O)CNC(C)C)cc1` (stereo not drawn): “lipid peroxide level” 743 ± 18.5 nmol/L (rats, adrenaline arrhythmia, plasma; intragastric, 2.57 g/kg daily, 14 days).
With `CCC1SC(NN=C2c3ccccc3-c3nc4cc(F)ccc4nc32)=NC1=O` (stereo not drawn) the blood glucose was 218 ± 6.3 mg/dL (mice with STZ-induced diabetes; oral, 25 mg/kg, 216 h, day 9).
For `SIYNFEKL`, “single cytokine producers” read 19.7% (flow cytometry, item: CD44hi CD8+ T cells; peptide, OT-I CD8+ T cells, mouse; primed 5 days, restimulated 100 ng/mL OVA257, with: no TGF-β1).
`COc1cc(OC)c2c(=O)cc(-c3cc(C)c(OC[C@H](O)CN4CCCCC4)c(C)c3)oc2c1`: “neutrophilic airway inflammation” “inhibited” (histology; C57BL/6J mouse, poly(I:C) model; oral or intraperitoneal, 10 mg/kg).
`COc1ccc2c(c1)CC[C@H](CN(C)CC(=O)O)[C@@H]2c1ccccc1`: “basal dopamine level” 0.54 ± 0.35 pg/10 µL (rat, prefrontal cortex microdialysate; oral gavage, 10 mg/kg/day, 2 weeks, PCP-treated rats).
`C[C@H]1C[C@H]2CSC(N)=N[C@@]2(c2nc(NC(=O)c3ccc(OC(F)F)cn3)cs2)CO1` — result for “change from baseline”: -79.6% (item: CSF Aβx-42; healthy adults; 125 mg once daily, 14 days, day 15; baseline: placebo-adjusted baseline).
For `COc1ccc(/C=C(\C(=O)c2cc(C)[nH]c(=O)c2C(=O)N2CCCCC2)c2ccc(OC)c(C)c2)cc1C`, the IC50 was > 10000 nM (cell proliferation, MTT; 35404 melanoma brain metastasis, human patient-derived; 72 h, tested up to 10 µM).
Under “GH AUC(0-2h) change”, `NCCCC[C@@H]1NC(=O)[C@@H](Cc2c[nH]c3ccccc23)NC(=O)[C@H](c2ccccc2)NC(=O)[C@@H]2C[C@@H](OC(=O)NCCN)CN2C(=O)[C@H](Cc2ccccc2)NC(=O)[C@H](Cc2ccc(OCc3ccccc3)cc2)NC1=O` is recorded as -46.2% (GHRH-stimulated GH secretion; healthy human volunteers; subcutaneous, 100 µg, with: GHRH 1 µg/kg; baseline: pre-dose baseline).
`Cc1cc(C)c(CNC(=O)c2cc(Cl)c3c(c2C)O[C@@](C)([C@H]2CC[C@H](N(C)C)CC2)O3)c(=O)[nH]1`: “objective response rate” 42.9% (patients with relapsed/refractory ATL; 200 mg once daily, skin lesions).
`CC(C)C[C@H](NC(=O)[C@H](CO)NC(=O)[C@H](CCCNC(=N)N)NC(=O)[C@H](CC(=O)O)NC(=O)[C@H](CCC(=O)O)NC(=O)[C@H](C)NC(=O)[C@@H]1CCCN1C(=O)[C@H](C)NC(=O)[C@H](CCC(=O)O)NC(=O)[C@@H]1CCCN1C(=O)[C@@H]1CCCN1)C(N)=O` has an HVA level of 861 ± 49 ng/g (HPLC-EC; rat F344, unilateral 6-OHDA lesion, contralateral striatum; intranasal, 300 µg daily, 5 weeks post lesion).
`Cc1cc(C)c(/C=C2\C(=O)Nc3ccccc32)[nH]1` gave a tumour volume of 76 cm³ (MRI; human; dose not given, 3.9 months).
`FSRALRTK` — result for “inhibition of TNF-α release”: 0% (ELISA or Luminex; peptide, mouse peritoneal macrophages, C57BL/6 mouse; optimal dose within 0.1 pM to 100 nM, 1 h pretreatment, 15 h stimulation, with: LPS 100 ng/mL + IFN-γ 20 ng/mL; baseline: LPS/IFN-γ stimulated control).
`CC[C@H](C)[C@H](NC(=O)[C@H](CCC(=O)O)NC(=O)[C@H](CO)NC(=O)[C@@H](NC(=O)[C@@H](N)CO)C(C)C)C(=O)N[C@@H](CCC(N)=O)C(=O)N[C@@H](CC(C)C)C(=O)N[C@@H](CCSC)C(=O)N[C@@H](Cc1c[nH]cn1)C(=O)N[C@@H](CC(N)=O)C(=O)N[C@@H](CC(C)C)C(=O)NCC(=O)N[C@@H](CCCCN)C(=O)N[C@@H](Cc1c[nH]cn1)C(=O)N[C@@H](CC(C)C)C(=O)N[C@@H](CC(N)=O)C(=O)N[C@@H](CO)C(=O)N[C@@H](CCSC)C(=O)N[C@@H](CCC(=O)O)C(=O)N[C@@H](CCCNC(=N)N)C(=O)N[C@H](C(=O)N[C@@H](CCC(=O)O)C(=O)N[C@@H](Cc1c[nH]c2ccccc12)C(=O)N[C@@H](CC(C)C)C(=O)N[C@@H](CCCNC(=N)N)C(=O)N[C@@H](CCCCN)C(=O)N[C@@H](CCCCN)C(=O)N[C@@H](CC(C)C)C(=O)N[C@@H](CCC(N)=O)C(=O)N[C@@H](CC(=O)O)C(=O)N[C@H](C(=O)N[C@@H](Cc1c[nH]cn1)C(=O)N[C@@H](CC(N)=O)C(=O)N[C@@H](Cc1ccccc1)C(=O)O)C(C)C)C(C)C`: “peak serum calcium” 9.7 to 9.8 mg/dL (item: corrected serum calcium; postmenopausal women, osteoporosis; subcutaneous, 56.5 µg once weekly, 6 h).
`insulin aspart`: “time to GIRmax” 138 min (euglycaemic glucose clamp; Japanese type 1 diabetes patients; subcutaneous, 0.2 U/kg).
`Cc1cccc2c1ccc1cc3ccccc3cc12`: “minimal protective dose” 0.5 mg (adrenal haemorrhage prevention; rat; oral, with: 7,12-DMBA 5 mg i.v.).
`C[C@]12CCCN1CC1=NNC(=O)c3cc(F)cc4[nH]c2c1c34` gave an inhibition of 53% (PARylation, item: PAR; MDA-MB-436 xenograft, mouse, tumour; 5.45 mg/kg single dose, 24 h).
With `COc1ccc2nc([S@@+]([O-])Cc3ncc(C)c(OC)c3C)[nH]c2c1` the intragastric pH was 2.4 (human ultra-rapid metabolizer; 40 mg/day, day 6, 5 days dosing).
The IC50 of `C[C@]12C=CC(=O)C=C1CC[C@@H]1[C@@H]2[C@@H](O)C[C@@]2(C)[C@H]1CC[C@]2(O)C(=O)CO` is reported as 17 nM (TNF-alpha release; human, whole blood ex vivo; unbound concentration, PK/PD model, with: lipopolysaccharide).
With `TLQPPASSRRRHFAHALPPAR` the contractile activity was 91 ± 5% (peptide, rat stomach fundus strips; 3 µM; baseline: TLQP-21).
`CS/C(S)=N/CCCC[S+](C)[O-]` (racemic): “mRNA fold change” 0.546 (RT-PCR, item: Chst1; rat, liver; oral gavage, 200 mg/kg, 96 h, dosed for four days; baseline: vehicle).
`Cc1c(C)c2c(c(C)c1O)CCC(C)(C(=O)NN=C1C(=O)N(C)c3cc(Cl)ccc31)O2` (stereo not drawn): “minimal effective dose” 100 mg/kg (seizure protection; male CF-1 mice; intraperitoneal, 0.5 h, with: pentylenetetrazole 60 mg/kg subcutaneous).
`SIIVFEKL`: “single cytokine producers” 5.95% (flow cytometry, item: CD44hi CD8+ T cells; peptide, OT-I CD8+ T cells, mouse; primed 5 days, restimulated 100 ng/mL OVA257, with: no TGF-β1).
For `Cc1c(C)c2c(c(C)c1OCc1ccccc1)CCC(C)(C(=O)NN=C1C(=O)Nc3ccc(Br)cc31)O2` (stereo not drawn), “minimal effective dose” read > 300 mg/kg (seizure protection; male CF-1 mice; intraperitoneal, 4 h, with: maximal electroshock).
With `O=C1N=C(NN=C2C(=O)Nc3ccccc32)SC1=C1c2ccccc2-c2nc3cc(F)ccc3nc21` the blood glucose was 227 ± 48.6 mg/dL (mice with STZ-induced diabetes; oral, 25 mg/kg, 288 h, day 12).
The Ki67-positive nuclei of `Palmitoyl-SMTSCAPS (N-palmitoyl; Palmitoyl = CCCCCCCCCCCCCCCC(=O)*)` is reported as 44.4 ± 3.94% (SCID mouse, subcutaneous AsPC-1 xenograft, tumour tissue; intratumoral, 500 µg/mouse/day, 3 weeks).
`CC[C@H](C)[C@H](NC(=O)[C@H](CCC(=O)O)NC(=O)[C@H](CO)NC(=O)[C@@H](NC(=O)[C@@H](N)CO)C(C)C)C(=O)N[C@@H](CCC(N)=O)C(=O)N[C@@H](CC(C)C)C(=O)N[C@@H](CCSC)C(=O)N[C@@H](Cc1c[nH]cn1)C(=O)N[C@@H](CC(N)=O)C(=O)N[C@@H](CC(C)C)C(=O)NCC(=O)N[C@@H](CCCCN)C(=O)N[C@@H](Cc1c[nH]cn1)C(=O)N[C@@H](CC(C)C)C(=O)N[C@@H](CC(N)=O)C(=O)N[C@@H](CO)C(=O)N[C@@H](CCSC)C(=O)N[C@@H](CCC(=O)O)C(=O)N[C@@H](CCCNC(=N)N)C(=O)N[C@H](C(=O)N[C@@H](CCC(=O)O)C(=O)N[C@@H](Cc1c[nH]c2ccccc12)C(=O)N[C@@H](CC(C)C)C(=O)N[C@@H](CCCNC(=N)N)C(=O)N[C@@H](CCCCN)C(=O)N[C@@H](CCCCN)C(=O)N[C@@H](CC(C)C)C(=O)N[C@@H](CCC(N)=O)C(=O)N[C@@H](CC(=O)O)C(=O)N[C@H](C(=O)N[C@@H](Cc1c[nH]cn1)C(=O)N[C@@H](CC(N)=O)C(=O)N[C@@H](Cc1ccccc1)C(=O)O)C(C)C)C(C)C`: “patients with PTH(1-84) below quantitation” 91% (item: endogenous PTH(1-84); human patients; dose not given, 12 months).
`COc1c(C)c(C)c2c(c1C)CCC(C)(C(=O)NN=C1C(=O)Nc3ccc(F)cc31)O2` (stereo not drawn) — result for “minimal effective dose”: 100 mg/kg (seizure protection; male CF-1 mice; intraperitoneal, 4 h, with: maximal electroshock).
Under “AUC(2-58 h) fold change”, `CCCCCCCCCCCCCCCC(=O)OCC(=O)[C@@]12OC(CCC)O[C@@H]1C[C@H]1[C@@H]3CCC4=CC(=O)C=C[C@]4(C)[C@H]3[C@@H](O)C[C@@]12C` (stereo partly drawn) is recorded as 3 fold (item: human FGF21 protein; CD-1 mouse, plasma; subcutaneous, 0.3 mg/kg mRNA, MC3 LNP with hFGF21 mRNA, steroid/mRNA 2:3; baseline: LNP without steroid).
`C[C@]1(c2nc3c(C(N)=O)cccc3[nH]2)CCCN1` — result for “patients with PAR reduction”: 68% (immunoassay, item: poly(ADP-ribose); human patients, PBMC; dose not given, 4 h post-dose, PAR reduction over 75%).

Repeated from above:
`Cc1cccc2c1ccc1cc3ccccc3cc12`: “minimal protective dose” 0.5 mg (adrenal haemorrhage prevention; rat; oral, with: 7,12-DMBA 5 mg i.v.).
`COc1ccc2c(c1)CC[C@H](CN(C)CC(=O)O)[C@@H]2c1ccccc1`: “basal dopamine level” 0.54 ± 0.35 pg/10 µL (rat, prefrontal cortex microdialysate; oral gavage, 10 mg/kg/day, 2 weeks, PCP-treated rats).
